{"data": "Measured values collected from several papers", "note": "A part holds a random share of what one study measured. Values joined by “and” are separate records of one study, mostly repeats; a detail may differ.", "UniProt P11229, sequence (whole entry, looked up)": "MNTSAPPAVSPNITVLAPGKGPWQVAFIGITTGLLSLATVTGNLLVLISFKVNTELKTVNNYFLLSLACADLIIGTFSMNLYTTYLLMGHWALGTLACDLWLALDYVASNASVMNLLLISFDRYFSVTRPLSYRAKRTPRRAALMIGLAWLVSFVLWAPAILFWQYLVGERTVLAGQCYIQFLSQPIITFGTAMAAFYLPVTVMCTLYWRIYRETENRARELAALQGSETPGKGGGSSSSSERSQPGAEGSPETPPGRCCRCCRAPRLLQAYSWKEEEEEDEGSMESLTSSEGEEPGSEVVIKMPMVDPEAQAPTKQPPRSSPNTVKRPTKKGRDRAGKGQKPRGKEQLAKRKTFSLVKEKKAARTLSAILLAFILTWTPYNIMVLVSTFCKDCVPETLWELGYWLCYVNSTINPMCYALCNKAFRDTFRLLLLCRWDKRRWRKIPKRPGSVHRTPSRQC", "UniProt P21918, sequence (whole entry, looked up)": "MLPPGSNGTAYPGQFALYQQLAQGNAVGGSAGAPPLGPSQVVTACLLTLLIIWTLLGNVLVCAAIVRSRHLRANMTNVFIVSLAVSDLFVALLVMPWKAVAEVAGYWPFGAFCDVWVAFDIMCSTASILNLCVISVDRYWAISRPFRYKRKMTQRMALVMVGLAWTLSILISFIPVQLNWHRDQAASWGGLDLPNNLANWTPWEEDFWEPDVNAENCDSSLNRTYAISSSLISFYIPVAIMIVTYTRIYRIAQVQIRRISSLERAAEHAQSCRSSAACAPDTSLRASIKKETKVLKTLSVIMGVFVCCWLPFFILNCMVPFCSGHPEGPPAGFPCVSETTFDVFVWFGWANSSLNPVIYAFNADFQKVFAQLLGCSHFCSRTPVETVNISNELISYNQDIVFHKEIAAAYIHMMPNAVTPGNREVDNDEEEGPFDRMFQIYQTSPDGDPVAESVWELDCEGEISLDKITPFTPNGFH", "UniProt P35372, sequence (whole entry, looked up)": "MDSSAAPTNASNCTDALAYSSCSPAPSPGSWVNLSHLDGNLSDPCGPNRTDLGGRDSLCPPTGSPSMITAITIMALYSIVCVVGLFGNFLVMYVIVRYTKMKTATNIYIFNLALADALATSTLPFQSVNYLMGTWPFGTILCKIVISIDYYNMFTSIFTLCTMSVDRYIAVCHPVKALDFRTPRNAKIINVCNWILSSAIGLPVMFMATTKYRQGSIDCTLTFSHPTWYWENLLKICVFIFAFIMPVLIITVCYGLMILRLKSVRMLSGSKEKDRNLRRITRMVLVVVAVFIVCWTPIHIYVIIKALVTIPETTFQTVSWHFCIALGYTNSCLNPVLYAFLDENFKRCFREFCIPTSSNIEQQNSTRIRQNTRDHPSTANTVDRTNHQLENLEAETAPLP", "UniProt P41143, sequence (whole entry, looked up)": "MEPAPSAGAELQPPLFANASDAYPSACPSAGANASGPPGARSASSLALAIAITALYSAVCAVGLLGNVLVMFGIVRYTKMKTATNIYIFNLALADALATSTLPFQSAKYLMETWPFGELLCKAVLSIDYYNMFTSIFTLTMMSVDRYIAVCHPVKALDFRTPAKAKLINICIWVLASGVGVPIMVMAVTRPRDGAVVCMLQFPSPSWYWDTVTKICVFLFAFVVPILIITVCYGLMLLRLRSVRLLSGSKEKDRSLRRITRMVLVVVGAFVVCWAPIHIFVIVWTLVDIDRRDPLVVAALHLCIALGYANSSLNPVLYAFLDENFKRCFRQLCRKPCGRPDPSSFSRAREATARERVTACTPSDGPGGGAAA", "UniProt P20309, sequence (whole entry, looked up)": "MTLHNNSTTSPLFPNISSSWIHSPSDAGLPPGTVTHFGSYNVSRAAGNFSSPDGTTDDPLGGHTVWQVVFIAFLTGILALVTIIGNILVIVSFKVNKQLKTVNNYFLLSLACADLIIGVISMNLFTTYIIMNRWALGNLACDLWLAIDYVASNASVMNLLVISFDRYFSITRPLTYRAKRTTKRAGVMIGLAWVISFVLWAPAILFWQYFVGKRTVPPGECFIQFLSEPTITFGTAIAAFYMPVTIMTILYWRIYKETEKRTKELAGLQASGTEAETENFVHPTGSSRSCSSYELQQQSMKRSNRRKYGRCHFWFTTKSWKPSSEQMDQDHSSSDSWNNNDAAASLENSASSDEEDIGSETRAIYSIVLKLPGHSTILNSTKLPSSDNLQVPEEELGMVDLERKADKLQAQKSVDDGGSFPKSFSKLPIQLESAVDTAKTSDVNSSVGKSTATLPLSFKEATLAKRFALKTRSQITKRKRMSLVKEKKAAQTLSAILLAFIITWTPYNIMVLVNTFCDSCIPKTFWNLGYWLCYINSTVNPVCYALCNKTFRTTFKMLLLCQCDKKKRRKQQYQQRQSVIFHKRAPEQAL", "UniProt P08908, sequence (whole entry, looked up)": "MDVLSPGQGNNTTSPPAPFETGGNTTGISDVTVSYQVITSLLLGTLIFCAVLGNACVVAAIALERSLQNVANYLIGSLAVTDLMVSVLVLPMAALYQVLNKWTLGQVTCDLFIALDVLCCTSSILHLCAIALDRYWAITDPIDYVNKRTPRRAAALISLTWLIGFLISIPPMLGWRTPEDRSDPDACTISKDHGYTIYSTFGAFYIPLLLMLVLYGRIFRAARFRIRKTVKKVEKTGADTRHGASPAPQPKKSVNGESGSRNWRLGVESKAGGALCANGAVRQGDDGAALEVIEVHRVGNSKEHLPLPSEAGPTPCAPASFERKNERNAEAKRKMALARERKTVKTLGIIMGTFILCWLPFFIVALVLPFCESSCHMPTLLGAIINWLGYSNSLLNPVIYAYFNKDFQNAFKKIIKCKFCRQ", "UniProt P41145, sequence (whole entry, looked up)": "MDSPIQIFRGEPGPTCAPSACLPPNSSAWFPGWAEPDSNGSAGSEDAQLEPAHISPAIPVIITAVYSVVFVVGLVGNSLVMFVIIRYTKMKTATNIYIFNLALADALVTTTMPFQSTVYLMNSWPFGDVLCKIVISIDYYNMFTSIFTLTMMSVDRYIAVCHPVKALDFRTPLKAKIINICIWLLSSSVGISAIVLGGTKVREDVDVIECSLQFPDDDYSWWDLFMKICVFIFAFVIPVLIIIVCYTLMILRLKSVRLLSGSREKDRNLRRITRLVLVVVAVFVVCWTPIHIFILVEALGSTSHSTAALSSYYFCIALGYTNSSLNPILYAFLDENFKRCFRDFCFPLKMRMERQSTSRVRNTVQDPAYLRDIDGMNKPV"}
{"data": "Block 1", "target": "Calcium/calmodulin-dependent protein kinase type II subunit alpha (CAMK2A, Homo sapiens, UniProt Q9UQM7)", "effect on": "enzyme activity", "action": "inhibitor", "tested at": "10 µM", "UniProt Q9UQM7, sequence (whole entry, looked up)": "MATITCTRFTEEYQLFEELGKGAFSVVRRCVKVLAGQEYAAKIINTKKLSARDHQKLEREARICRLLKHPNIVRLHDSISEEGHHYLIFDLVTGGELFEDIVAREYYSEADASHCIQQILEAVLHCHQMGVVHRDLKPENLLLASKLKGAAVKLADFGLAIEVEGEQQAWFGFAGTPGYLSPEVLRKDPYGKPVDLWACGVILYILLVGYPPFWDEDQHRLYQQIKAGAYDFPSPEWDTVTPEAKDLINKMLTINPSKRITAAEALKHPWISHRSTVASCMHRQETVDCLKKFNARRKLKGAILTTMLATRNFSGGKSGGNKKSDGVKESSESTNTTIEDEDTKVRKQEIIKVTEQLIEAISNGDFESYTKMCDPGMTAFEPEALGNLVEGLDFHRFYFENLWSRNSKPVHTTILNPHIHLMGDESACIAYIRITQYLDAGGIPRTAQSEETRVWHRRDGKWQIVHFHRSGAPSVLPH"}
{"Structure (SMILES)": "C=CCc1cc(OC)c2c(c1)OCO2", "inhibition": "-12%"}
{"Structure (SMILES)": "Cc1cc(C2=NOC(c3cc(Cl)cc(Cl)c3)(C(F)(F)F)C2)ccc1C(=O)NCC(=O)NCC(F)(F)F (stereo not shown)", "inhibition": "-6%"}
{"Structure (SMILES)": "COc1cc2c(cc1O)C[C@H]1c3c(cc(O)c(OC)c3-2)CCN1C", "inhibition": "-29%"}
{"Structure (SMILES)": "CC(=O)C1=C(O)[C@@H]2[C@H]3c4c[nH]c5cccc(c45)C[C@H]3C(C)(C)N2C1=O", "inhibition": "2%"}
{"Structure (SMILES)": "C/C=C1/CN2CCc3c([nH]c4ccccc34)[C@@H]2C[C@@H]1/C(=C/OC)C(=O)OC", "inhibition": "-11%"}
{"Structure (SMILES)": "CC[C@]12C=CCN3CC[C@@]4(c5ccc(OC)cc5N(C)[C@H]4[C@@](O)(C(=O)OC)[C@@H]1OC(C)=O)[C@@H]32", "inhibition": "10%"}
{"Structure (SMILES)": "C[C@]12CCC(=O)C=C1CC[C@@H]1[C@@H]2C(=O)C[C@]2(C)C(=O)CC[C@@H]12", "inhibition": "-10%"}
{"data": "Block 2", "target": "Bromodomain-containing protein 4, BD1 (BRD4, Homo sapiens, UniProt O60885)", "effect on": "acetyl-histone H4 peptide binding", "technique": "AlphaScreen displacement", "tested at": "50 µM"}
{"Structure (SMILES)": "N#CC(C#N)=Cc1ccc(O)c(O)c1", "inhibition [%]": 18.5}
{"Structure (SMILES)": "O=C1Nc2ccccc2C1=Cc1c[nH]cn1", "inhibition [%]": 19.9}
{"Structure (SMILES)": "O=C1NC(=O)c2c1c1c3ccccc3n3c1c1c2c2ccccc2n1[C@@H]1CCC3O1", "inhibition [%]": -15.8}
{"Structure (SMILES)": "Cc1cccc(NC=C2C(=O)NC(=O)N(c3ccc(F)cc3)C2=O)c1", "inhibition [%]": 16.9}
{"Structure (SMILES)": "Cc1cccc(N2C(=O)NC(=O)C(=CNc3ccc(Cl)cc3)C2=O)c1", "inhibition [%]": 11.2}
{"Structure (SMILES)": "COc1ccc(N2C(=O)NC(=O)C(=CNc3cccc(C)c3)C2=O)cc1", "inhibition [%]": 10}
{"Structure (SMILES)": "Cc1cccc(NC=C2C(=O)NC(=O)N(c3ccccc3)C2=O)c1", "inhibition [%]": 21.1}
{"Structure (SMILES)": "COc1cccc(N2C(=O)NC(=O)C(=CNc3cccc(Cl)c3)C2=O)c1", "inhibition [%]": 18.6}
{"data": "Block 3", "target": "Eukaryotic initiation factor 4A-I (EIF4A1, Homo sapiens, UniProt P60842)", "effect on": "RNA clamping", "technique": "fluorescence polarization", "tested at": "concentration not given", "setting": "mean of two replicates", "added": "FAM-labelled poly r(AG)8 RNA", "UniProt P60842, sequence (whole entry, looked up)": "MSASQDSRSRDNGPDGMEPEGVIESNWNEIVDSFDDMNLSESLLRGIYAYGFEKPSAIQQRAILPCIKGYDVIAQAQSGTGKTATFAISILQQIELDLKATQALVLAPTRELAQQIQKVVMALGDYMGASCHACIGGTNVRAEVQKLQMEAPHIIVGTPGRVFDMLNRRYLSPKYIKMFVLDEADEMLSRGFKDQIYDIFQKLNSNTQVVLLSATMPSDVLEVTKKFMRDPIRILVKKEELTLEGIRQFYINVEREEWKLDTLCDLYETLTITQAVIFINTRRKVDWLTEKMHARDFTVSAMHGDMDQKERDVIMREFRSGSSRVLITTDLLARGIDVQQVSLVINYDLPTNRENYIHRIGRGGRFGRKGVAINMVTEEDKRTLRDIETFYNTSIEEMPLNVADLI"}
{"Structure (SMILES)": "COc1ccc([C@@]23Oc4cc(OC)cc(OC)c4[C@]2(O)c2nc(-c4ccc(Cl)nc4)[nH]c(=O)c2[C@H]3c2ccccc2)cc1", "fluorescence polarization change": "28 mP"}
{"Structure (SMILES)": "COc1ccc([C@@]23Oc4cc(OC)cc(OC)c4[C@@]24NC(C)=NC4=C(C=O)[C@H]3c2ccccc2)cc1", "fluorescence polarization change": "44.6 mP"}
{"Structure (SMILES)": "COC(=O)[C@@H]1[C@@H](c2ccccc2)[C@]2(c3ccc(OC)cc3)Oc3cc(OC)cc(OC)c3[C@@]23N=C(C)N[C@@]13O", "fluorescence polarization change": "91.5 mP and 77.5 mP"}
{"Structure (SMILES)": "COC(=O)[C@@H]1[C@@H](c2ccccc2)[C@]2(c3ccc(OC)cc3)Oc3cc(OC)cc(OC)c3[C@@]23OC(C)=N[C@@]13O", "fluorescence polarization change": "39.6 mP"}
{"Structure (SMILES)": "COc1ccc([C@@]23Oc4cc(OC)cc(OC)c4[C@]2(O)c2nc(-c4cccnc4)[nH]c(=O)c2[C@H]3c2ccccc2)cc1", "fluorescence polarization change": "45.8 mP"}
{"Structure (SMILES)": "CCOC(=O)COc1nc(-c2ccccc2)nc2c1[C@@H](c1ccccc1)[C@]1(c3ccc(OC)cc3)Oc3cc(OC)cc(OC)c3[C@]21O", "fluorescence polarization change": "8.7 mP"}
{"Structure (SMILES)": "COC(=O)[C@@H]1[C@@H](O)[C@@]2(O)c3c(OC)cc(OC)cc3O[C@@]2(c2ccc(Br)cc2)[C@H]1c1ccccc1", "fluorescence polarization change": "24.5 mP"}
{"Structure (SMILES)": "COc1ccc([C@@]23Oc4cc(OC)cc(OC)c4[C@]2(O)c2nc(-c4ccc(Br)cc4)[nH]c(=O)c2[C@H]3c2ccccc2)cc1", "fluorescence polarization change": "1.9 mP"}
{"Structure (SMILES)": "COCc1nc2c(c(=O)[nH]1)[C@@H](c1ccccc1)[C@]1(c3ccc(OC)cc3)Oc3cc(OC)cc(OC)c3[C@]21O", "fluorescence polarization change": "62.6 mP"}
{"Structure (SMILES)": "COc1ccc([C@@]23Oc4cc(OC)cc(OC)c4[C@]2(O)[C@H](O)[C@H](C(=O)O)[C@H]3c2ccccc2)cc1", "fluorescence polarization change": "51.1 mP and 59.3 mP"}
{"Structure (SMILES)": "COc1ccc([C@@]23Oc4cc(OC)cc(OC)c4[C@]2(O)c2nc(-c4cnccn4)[nH]c(=O)c2[C@H]3c2ccccc2)cc1", "fluorescence polarization change": "37.7 mP"}
{"Structure (SMILES)": "COc1ccc([C@@]23Oc4cc(OC)cc(OC)c4[C@]2(O)[C@@H](O)C[C@H]3c2ccccc2)cc1", "fluorescence polarization change": "21.5 mP"}
{"data": "Block 4", "Compound": "C[C@H](c1ccc(F)cc1)N(Cc1ccc(Cl)c(C(=O)O)c1)C(=O)c1cnc2ccccc2c1", "effect on": "cell-free assay", "tested at": "10 µM"}
{"target": "Kappa-type opioid receptor (OPRK1, Homo sapiens, UniProt P41145)", "inhibition": "-0.42%"}
{"target": "Muscarinic acetylcholine receptor M3 (CHRM3, Homo sapiens, UniProt P20309)", "inhibition": "39%"}
{"target": "D(1B) dopamine receptor (DRD5, Homo sapiens, UniProt P21918)", "inhibition": "12.8%"}
{"target": "5-hydroxytryptamine receptor 1A (HTR1A, Homo sapiens, UniProt P08908)", "inhibition": "-3.79%"}
{"target": "Muscarinic acetylcholine receptor M1 (CHRM1, Homo sapiens, UniProt P11229)", "inhibition": "14.5%"}
{"target": "Mu-type opioid receptor (OPRM1, Homo sapiens, UniProt P35372)", "inhibition": "0.07%"}
{"target": "Delta-type opioid receptor (OPRD1, Homo sapiens, UniProt P41143)", "inhibition": "12.4%"}
{"note": "Repeated from above (block 4):"}
{"target": "D(1B) dopamine receptor (DRD5, Homo sapiens, UniProt P21918)", "inhibition": "12.8%"}
{"target": "Mu-type opioid receptor (OPRM1, Homo sapiens, UniProt P35372)", "inhibition": "0.07%"}
{"target": "Kappa-type opioid receptor (OPRK1, Homo sapiens, UniProt P41145)", "inhibition": "-0.42%"}
{"target": "Delta-type opioid receptor (OPRD1, Homo sapiens, UniProt P41143)", "inhibition": "12.4%"}
{"target": "Muscarinic acetylcholine receptor M3 (CHRM3, Homo sapiens, UniProt P20309)", "inhibition": "39%"}
